Measured values from different studies.
Each line is one published result; not all experiments were run side by side. “And” joins repeats or separate records; there may be more than shown. Numbers after ± are the reported error.

SMILES | cell line | assay | test system | setting | how to read | quantity | value
Nc1ccn([C@@H]2O[C@H](CO)[C@@H](O)[C@H]2O)c(=O)n1 | activated human T cells | – | – | concentration not given | reference: DMSO | T cell proliferation | 108% and 102% and 101% and 105% and 100%
Cc1nc(NC(=O)N2CCC[C@H]2C(N)=O)sc1-c1ccnc(C(C)(C)C(F)(F)F)c1 | SNU-1076 | cell growth, CellTiter-Glo | – | 120 h | – | Hill coefficient | 0.747
COc1cc(/C=C/C(=O)N2CCC=CC2=O)cc(OC)c1OC | MDA-MB-468 | qRT-PCR, item: Caspase6 | – | 30 µM, 6 h | reference: time zero | mRNA expression | 81.6 ± 11.7%
CCn1cc(-c2cc(Cn3ccnc3)cc3c2CCN([C@H](c2cc(OC)ccn2)C2CC2)C3=O)c(C(F)(F)F)n1 | HMCB | cell growth, inhibitor | – | 120 h | – | EC50 | 14.9 µM
CC1(C)CCC(CN2CCN(c3ccc(C(=O)NS(=O)(=O)c4ccc(NCC5CCOCC5)c([N+](=O)[O-])c4)c(Oc4cnc5[nH]ccc5c4)c3)CC2)=C(c2ccc(Cl)cc2)C1 | KCL-22 | annexin V/PI flow cytometry, item: annexin V+/PI+ | – | 3.2 µM, 24 h | – | late apoptotic cells | 6.2%
C[C@]12CCCN1CC1=NNC(=O)c3cc(F)cc4[nH]c2c1c34 | HT-29 colorectal cancer cells | cell viability | – | concentration not given, added: with temozolomide | – | EC50 | > 3 µM
C=CCn1c(=O)c2cnc(Nc3ccc(N4CCN(C)CC4)cc3)nc2n1-c1ccc2c(n1)[C@@](O)(CC)CC2 | Kuramochi | flow cytometry | – | concentration not given | – | G2/M phase cells | 19.9%
Cn1cc(-c2ccc(-c3cncc(Cl)c3N3CCC4(CCNC4=O)CC3)cc2)cn1 | COLO 205 | gene expression, microarray, item: GNAZ mRNA | – | concentration not given, 2 h | reference: untreated cells | log2 fold change | 1.04
O=C(C[C@@H](C(F)F)n1ccc(F)n1)N1CCC(O)(Cn2cnc3c(cnn3-c3ccc(F)cc3)c2=O)CC1 | CHP-212 parental (wild-type USP7) | annexin V-PI flow cytometry | – | 0.3 µM, 48 h | – | early apoptotic cells (annexin V+/PI-) | 14.6% and 16.5% and 17%
CC(=O)c1nn(-c2ccc(Cl)cc2)/c(=N/N=C(\C)c2ccc(NC(=O)c3ccccc3)cc2)s1 | HepG2 | – | – | 2.5 µM | – | toxicity | 97.1% and 96.6%
C=CC[C@@H]1c2ccc(OC)c(OC)c2CN2CCc3cc4c(cc3[C@H]12)OCO4 | HEK293 transfected | ATP-evoked current, whole-cell patch clamp | – | 30 µM, mutant K297R | – | normalised current | 0.468 and 0.603 and 0.517
COc1c(C)c(OC(C)=O)c(C)c(O)c1C(=O)/C=C/c1ccccc1 | KKU-M213 | SRB | – | – | reference: normal over KKU-M213 IC50 | selectivity index | 0.72
Cc1nn(-c2nc3c(F)cc(F)cc3s2)c(O)c1C(c1ccc(C(F)(F)F)cc1)c1c(C)nn(-c2nc3c(F)cc(F)cc3s2)c1O | RAW-ISG | RT-qPCR, item: IFNB1 | – | 10 µM, unit not given, added: poly(I:C) | reference: vehicle | mRNA level | 1.01
Nc1cccc2c1C(=O)N(C1CCC(=O)NC1=O)C2=O (stereo not shown) | MM1.S | XTT | – | 2 µM | – | viability | 16% and 31%
CCCCCCCCCCCCCCCCCCOc1cccc(CC(=O)OCC[N+]2(C)CCCC2)c1 | NSCLC panel (nine cell lines) | – | – | 10 µM | – | mean growth inhibition | 16.9%
C=CC1=C(C)c2cc3[n-]c(cc4nc(cc5[n-]c(cc1n2)c(C)c5C=C)C(C)=C4CCC(=O)O)c(CCC(=O)O)c3C.[Zn+2] | SH-SY5Y | RNA-seq, item: FAM30A mRNA | – | 5 µM, 5 h | reference: untreated cells | fold change | 2.6
CCCCN1C[C@H](O)[C@@H](O)[C@H](O)[C@H]1CO | Sandhoff disease patient fibroblasts | glycosphingolipid lowering, LC-MS/MS, item: GM3 d18:1/22:0 | human | – | – | IC50 | 6.95 µM
COc1cnc2cccc(N3CCc4c(cc(Cn5ccnc5C)cc4-c4cn(C)nc4C(F)(F)F)C3=O)c2c1 | CAL-27 | cell growth, inhibitor | – | 120 h | – | EC50 | 9.68 µM
Nc1ncnc2c1ncn2[C@@H]1O[C@H](CO)[C@@H](O)[C@H]1O | activated human T cells | item: UDP | – | 30 µM | reference: DMSO | log2 fold change | -3.3

A few entries again:
SMILES | cell line | assay | test system | setting | how to read | quantity | value
CC(=O)c1nn(-c2ccc(Cl)cc2)/c(=N/N=C(\C)c2ccc(NC(=O)c3ccccc3)cc2)s1 | HepG2 | – | – | 2.5 µM | – | toxicity | 97.1% and 96.6%
C=CC[C@@H]1c2ccc(OC)c(OC)c2CN2CCc3cc4c(cc3[C@H]12)OCO4 | HEK293 transfected | ATP-evoked current, whole-cell patch clamp | – | 30 µM, mutant K297R | – | normalised current | 0.468 and 0.603 and 0.517
COc1c(C)c(OC(C)=O)c(C)c(O)c1C(=O)/C=C/c1ccccc1 | KKU-M213 | SRB | – | – | reference: normal over KKU-M213 IC50 | selectivity index | 0.72
